Assay results from different studies.
Each numbered part is a random draw from the data of one study; scales do not carry over between parts.

Set 1 — technique: RNA Bind-n-Seq; molecule type: RNA; sample: in vitro; concentration: 20 nM; setting: 6-mer, flanks averaged, single round; with: 150 mM LiCl; baseline: input library; direction: higher = stronger binding
Target: TAR DNA-binding protein 43, full length, His tag (TARDBP, Homo sapiens, UniProt Q13148, residues 1-414)
| Sequence | 6-mer enrichment (R) |
| --- | --- |
| CAAUGA | 0.856 |
| CAUGGG | 1.07 |
| CACUCG | 0.82 |
| GUAGGG | 1.24 |
| CGCUUA | 0.888 |
| GGAGUU | 1.06 |

Set 2 — technique: universal PBM; molecule type: double-stranded DNA, one strand shown; sample: in vitro; concentration: 600 nM; direction: higher = stronger binding
Target: Sal-like protein 4, full length isoform A (SALL4, Homo sapiens, UniProt Q9UJQ4, residues 1-1053)
UniProt Q9UJQ4, sequence (whole entry, looked up): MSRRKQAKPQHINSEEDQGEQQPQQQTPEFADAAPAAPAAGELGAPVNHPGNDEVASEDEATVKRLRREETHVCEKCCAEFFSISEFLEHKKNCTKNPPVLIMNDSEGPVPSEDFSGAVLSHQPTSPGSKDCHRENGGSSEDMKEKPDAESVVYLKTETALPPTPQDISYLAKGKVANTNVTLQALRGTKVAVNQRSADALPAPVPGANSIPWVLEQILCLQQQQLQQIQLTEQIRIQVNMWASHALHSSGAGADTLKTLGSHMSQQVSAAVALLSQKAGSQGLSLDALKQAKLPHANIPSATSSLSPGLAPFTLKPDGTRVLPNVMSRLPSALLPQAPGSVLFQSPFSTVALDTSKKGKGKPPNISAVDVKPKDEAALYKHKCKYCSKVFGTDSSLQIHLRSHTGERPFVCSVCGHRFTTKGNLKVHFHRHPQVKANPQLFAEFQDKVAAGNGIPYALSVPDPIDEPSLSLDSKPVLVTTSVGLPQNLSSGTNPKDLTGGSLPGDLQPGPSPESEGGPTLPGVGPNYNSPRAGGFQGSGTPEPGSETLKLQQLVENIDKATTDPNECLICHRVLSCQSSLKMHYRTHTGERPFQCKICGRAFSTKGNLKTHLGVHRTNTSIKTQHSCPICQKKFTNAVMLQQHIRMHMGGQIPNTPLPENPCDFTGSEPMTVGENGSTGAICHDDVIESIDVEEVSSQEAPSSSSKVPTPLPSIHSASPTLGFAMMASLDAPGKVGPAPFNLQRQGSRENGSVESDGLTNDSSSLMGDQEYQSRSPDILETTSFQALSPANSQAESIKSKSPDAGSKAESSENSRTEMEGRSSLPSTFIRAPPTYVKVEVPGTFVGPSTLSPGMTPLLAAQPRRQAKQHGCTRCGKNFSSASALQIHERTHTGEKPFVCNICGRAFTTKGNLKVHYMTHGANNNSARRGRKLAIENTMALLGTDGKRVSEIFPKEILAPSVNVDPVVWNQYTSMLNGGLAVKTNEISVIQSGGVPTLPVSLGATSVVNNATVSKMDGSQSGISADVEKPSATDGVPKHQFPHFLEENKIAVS
Setting: 8-mer, flanks averaged, mean of replicates
| Sequence | E-score |
| --- | --- |
| CCAATGGC | -0.184 |
| CAACGTGG | -0.24 |
| AGGCGAGC | -0.299 |
| CCGCCCCC | -0.334 |
| AAGCTACT | 0.05 |
| GAGTAATC | 0.153 |

Set 3 — technique: RNA Bind-n-Seq; molecule type: RNA; sample: in vitro; concentration: 365 nM; baseline: no-protein control; direction: higher = stronger binding
Target: RNA binding protein fox-1 homolog 2, RRM domain, GST-SBP tag (RBFOX2, Homo sapiens, UniProt O43251-10, residues 100-194)
Setting: natural RNA segment, single round, ends assumed
Shared flanks, not repeated: GGGAGUUCUACAGUCCGACGAUC … UGGAAUUCUCGGGUGCCAA
| Sequence | RBNS enrichment (R) |
| --- | --- |
| GUGUCCUUUUCUUUUGCUUCAGGCUAAGAGCUGCCUCGCUCUUUGUCCCCCCAUUAGGAUUCUAUUACAUAUGCAAUUGUAGGUUCAACCUGUCCCUUUCCCUGCCAGCA | 0.571 |
| UGUUGCAUUAUUUUGAAUAUUGUCUUUUCAUUUUAAUAAAGUUAUAUUACUUAUUUAUGACACCGUUAAUAAUGUGUCUUGUCUAAACUCUUAUAGGAUGUCUCAAGCAA | 0.718 |
| ACCUUUUUGUUAGUGUUUAAGGGAGCCCCUGAAGAGACUCAACAGAACAGUGAGAGGAGAGAGAGAAAAGCUGGCAGGGUUGUGACUGGCAUGCAAAUCCAUAUUCUAGC | 1.06 |
| AAUAUGCAAACUCCAUCUCAAAACUACUGUCUUUCACCUUCCCAAAUCUCUAUCCUCGUGUGCUUCAAGCUCUAUAACAACCAUAUCAUGAGGUAUUUGCAAAGGAAAAC | 0.703 |
| CAGCGUCUGAGACUUGAGAACUGAGACACCGUGUUCUUCAGCACGCGUCCUGUAGCUAGAGGCUCGAACCUACCAGCCCGCGACCGCCACCCACCCAGCGGUAUUGGAAG | 0.519 |
| GGGGGUUUGCGGUUUUUCUGGGACAACAAGUUUGACCAUGCAAUGGUAGCUUUUCUGGACUGUGUGCAGCAGUUCAAAGAAGAGGUGGAAAAAGGAGAGACUCGAUUUUG | 0.847 |
| AUUGUUGUGUCAGUGUAGAAUAGUGGCAUAAAUAAAUGAAUUAAGCUACAUUUCCAUGCAGGCAUUUGCACUUUGAAGUUAGGGCUGCCCAGUGCCACAUGCAAAGAGUG | 0.467 |

Single results of other studies
| Substance | target | test | system | conditions | how to read | quantity | result |
| --- | --- | --- | --- | --- | --- | --- | --- |
| PhoQ, residues 284 288 289 292 302 303 GASLAW | PhoP, residues 12 14 15 18 19 SMASL (Escherichia coli, UniProt P23836) | Sort-seq, measured: YFP reporter | E. coli | PhoQ-PhoP variant library, with: 10 µM Mg2+ | baseline: high Mg2+ state, higher = stronger signaling | fold induction | 1.02 |

Some of these lines once more (set 3):
| Sequence | RBNS enrichment (R) |
| --- | --- |
| GUGUCCUUUUCUUUUGCUUCAGGCUAAGAGCUGCCUCGCUCUUUGUCCCCCCAUUAGGAUUCUAUUACAUAUGCAAUUGUAGGUUCAACCUGUCCCUUUCCCUGCCAGCA | 0.571 |
